{"data": "Measurements gathered from unrelated publications", "SPT15/TOA1/TOA2/SUA7 1-240; 1-286; 1-122; 1-345": "SPT15/TOA1/TOA2/SUA7 1-240; 1-286; 1-122; 1-345 (Saccharomyces cerevisiae)", "Fibroin-modulator-binding protein-1": "Fibroin-modulator-binding protein-1 99-193 (Bombyx mori, UniProt Q5FBS0)", "note": "± gives the spread as reported."}
{"Molecule": "colistin", "target or system": "Escherichia coli", "test": "broth microdilution", "system": "clinical isolate RKI-No_462/16", "measurement": "MIC", "value": "8 µg/mL"}
{"Molecule": "DNA 1 TGGGTGGGTAGGGTGGGTAGGGGAGGAT / DNA 2 ATCCTCCCCTA (DNA; intramolecular parallel G4, 5' overhang, 11-bp duplex)", "target or system": "REV1 330-833 N497S (Homo sapiens, UniProt Q9UBZ9)", "test": "FP", "system": "folded DNA", "setting": "KCl 100 mM", "measurement": "Kd", "value": "0.0069 ± 0.0023 µM"}
{"Molecule": "GGGAGAACUUCGACCAGAAGAAGGAUACGCAUCUAGCACCCCUGCCUUCCUUCUAAUGUUUAUGUGCGCAUACAUGGAUCCUC (ssRNA; 2'-fluoro pyrimidines)", "target or system": "integrin alphaV/beta3 31-992/27-718 (Homo sapiens)", "test": "SPR", "system": "RNA", "setting": "together with: MnCl2 1 mM", "scale": "higher = more binding", "measurement": "relative binding", "value": "109 RU"}
{"Molecule": "AACAAGTACAACACACTCTCAAATAATTATGCGCTTCAAGTCAATCGGTCC (dsDNA; 5'-amino-C6 primer)", "target or system": "SPT15/TOA1/TOA2/SUA7 1-240; 1-286; 1-122; 1-345", "test": "array", "system": "double-stranded DNA, one strand shown", "setting": "TBP:TFIIA:TFIIB ternary complex", "measurement": "Kd", "value": "0.0127 ± 0.00868 µM"}
{"Molecule": "GGGAGAACUUCGACCAGAAGUCCUUAACUUCAGCGUACAUUACGCUACAUCUCCCCAGCCUAUGUGCGCAUACAUGGAUCCUC (ssRNA; 2'-fluoro pyrimidines)", "target or system": "integrin alphaV/beta3 31-992/27-718 (Homo sapiens)", "test": "SPR", "system": "RNA", "setting": "together with: MnCl2 1 mM", "scale": "higher = more binding", "measurement": "relative binding", "value": "120 RU"}
{"Molecule": "CTGAAGGGGGGGCTATAAAAGGGGGTGGGGGCTCCTCAAGTCAATCGGTCC (dsDNA; 5'-amino-C6 primer)", "target or system": "SPT15/TOA1/TOA2/SUA7 1-240; 1-286; 1-122; 1-345", "test": "array", "system": "double-stranded DNA, one strand shown", "setting": "TBP:TFIIA:TFIIB ternary complex", "measurement": "Kd", "value": "0.00148 ± 0.00016 µM"}
{"Molecule": "GGGAGAACUUCGACCAGAAGACACAUAACACGCCUUUGGAGCGAUACCUCCAUCAACGAUUAUGUGCGCAUACAUGGAUCCUC (ssRNA; 2'-fluoro pyrimidines)", "target or system": "integrin alphaV/beta3 31-992/27-718 (Homo sapiens)", "test": "SPR", "system": "RNA", "setting": "together with: MnCl2 1 mM", "scale": "higher = more binding", "measurement": "relative binding", "value": "239 RU"}
{"Molecule": "ACCAACCAACCA (dsDNA)", "target or system": "Fibroin-modulator-binding protein-1", "test": "ITC", "system": "double-stranded DNA, one strand shown", "measurement": "Kd", "value": "2.14 ± 0.231 µM"}
{"Molecule": "GGGAGAACUUCGACCAGAAGUCCUUGCCACCGUCUCACAUUACGCUAAAUCUCUCCAGCCUAUGUGCGCAUACAUGGAUCCUC (ssRNA; 2'-fluoro pyrimidines)", "target or system": "integrin alphaV/beta3 31-992/27-718 (Homo sapiens)", "test": "SPR", "system": "RNA", "setting": "together with: MnCl2 1 mM", "scale": "higher = more binding", "measurement": "relative binding", "value": "39.1 RU"}
{"Molecule": "DNA 1 CACTGGCCGTCTTACGGTCGCTCTGCTCGACG / DNA 2 CGACCGTAAGACGGCCAGTG (dsDNA; 20 bp, 3' 12 nt overhang)", "target or system": "RECQL 63-592 T371A (Bos taurus, UniProt A0JN36)", "test": "fluorescence anisotropy", "system": "double-stranded DNA", "setting": "together with: Mg2+ 3 mM", "measurement": "Kd", "value": "0.113 ± 0.009 µM"}
{"Molecule": "GTAGGTAGGTAG (dsDNA)", "target or system": "Fibroin-modulator-binding protein-1", "test": "ITC", "system": "double-stranded DNA, one strand shown", "measurement": "Kd", "value": "8.79 µM"}
{"Molecule": "GSGAGKETYY", "target or system": "human SCRIB PDZ3-4 tandem (MBP fusion)", "test": "automated holdup", "system": "peptide, crude extract", "setting": "concentration not given, corrected by standard peak, unit not given", "scale": "baseline: biotin control resin, higher = stronger binding", "measurement": "binding intensity", "value": 0.000166}
{"Molecule": "GGTAGGTAGGTA (dsDNA)", "target or system": "Fibroin-modulator-binding protein-1", "test": "ITC", "system": "double-stranded DNA, one strand shown", "measurement": "Kd", "value": "5.27 ± 0.865 µM"}
{"Molecule": "Peginesatide", "target or system": "UT7/EPO", "test": "phosphorylation, agonist, item: phospho-STAT5", "setting": "10 min", "scale": "baseline: rHuEPO maximum", "measurement": "Emax", "value": "101 ± 3%"}
{"Molecule": "ATGACTGAATTCAAGGCCGGTTCTGCTAAGAAAGGTCAAGTCAATCGGTCC (dsDNA; 5'-amino-C6 primer)", "target or system": "SPT15/TOA1/TOA2/SUA7 1-240; 1-286; 1-122; 1-345", "test": "array", "system": "double-stranded DNA, one strand shown", "setting": "TBP:TFIIA:TFIIB ternary complex", "measurement": "Kd", "value": "0.00112 ± 0.00012 µM"}
{"Molecule": "GGAGGGAGGGAG (dsDNA)", "target or system": "Fibroin-modulator-binding protein-1", "test": "ITC", "system": "double-stranded DNA, one strand shown", "measurement": "Kd", "value": "4.75 µM"}
{"Molecule": "GSGAGICTIV", "target or system": "human SCRIB PDZ3-4 tandem (MBP fusion)", "test": "automated holdup", "system": "peptide, crude extract", "setting": "concentration not given, corrected by standard peak, unit not given", "scale": "baseline: biotin control resin, higher = stronger binding", "measurement": "binding intensity", "value": 0.425}
{"Molecule": "GGGAGAACUUCGACCAGAAGUCGGAAGCGAUCCGAACAUUACGCAAAACACCUCCCUGCCUAUGUGCGCAUACAUGGAUCCUC (ssRNA; 2'-fluoro pyrimidines)", "target or system": "integrin alphaV/beta3 31-992/27-718 (Homo sapiens)", "test": "SPR", "system": "RNA", "setting": "together with: MnCl2 1 mM", "scale": "higher = more binding", "measurement": "relative binding", "value": "75.1 RU"}
{"Molecule": "AGGAAGGAAGGA (dsDNA)", "target or system": "Fibroin-modulator-binding protein-1", "test": "ITC", "system": "double-stranded DNA, one strand shown", "measurement": "Kd", "value": "4.96 ± 0.992 µM"}
{"note": "For quick reference, copied from above:"}
{"Molecule": "GGGAGAACUUCGACCAGAAGAAGGAUACGCAUCUAGCACCCCUGCCUUCCUUCUAAUGUUUAUGUGCGCAUACAUGGAUCCUC (ssRNA; 2'-fluoro pyrimidines)", "target or system": "integrin alphaV/beta3 31-992/27-718 (Homo sapiens)", "test": "SPR", "system": "RNA", "setting": "together with: MnCl2 1 mM", "scale": "higher = more binding", "measurement": "relative binding", "value": "109 RU"}
{"Molecule": "AACAAGTACAACACACTCTCAAATAATTATGCGCTTCAAGTCAATCGGTCC (dsDNA; 5'-amino-C6 primer)", "target or system": "SPT15/TOA1/TOA2/SUA7 1-240; 1-286; 1-122; 1-345", "test": "array", "system": "double-stranded DNA, one strand shown", "setting": "TBP:TFIIA:TFIIB ternary complex", "measurement": "Kd", "value": "0.0127 ± 0.00868 µM"}
